Experimental data from different studies.
Each line is one published result; not all experiments were run side by side. “And” joins repeats or separate records; there may be more than shown. Numbers after ± are the reported error.
Target: Cytochrome P450 2C19 (CYP2C19, Homo sapiens, UniProt P33261)
Chain of UniProt P33261 (whole entry, looked up): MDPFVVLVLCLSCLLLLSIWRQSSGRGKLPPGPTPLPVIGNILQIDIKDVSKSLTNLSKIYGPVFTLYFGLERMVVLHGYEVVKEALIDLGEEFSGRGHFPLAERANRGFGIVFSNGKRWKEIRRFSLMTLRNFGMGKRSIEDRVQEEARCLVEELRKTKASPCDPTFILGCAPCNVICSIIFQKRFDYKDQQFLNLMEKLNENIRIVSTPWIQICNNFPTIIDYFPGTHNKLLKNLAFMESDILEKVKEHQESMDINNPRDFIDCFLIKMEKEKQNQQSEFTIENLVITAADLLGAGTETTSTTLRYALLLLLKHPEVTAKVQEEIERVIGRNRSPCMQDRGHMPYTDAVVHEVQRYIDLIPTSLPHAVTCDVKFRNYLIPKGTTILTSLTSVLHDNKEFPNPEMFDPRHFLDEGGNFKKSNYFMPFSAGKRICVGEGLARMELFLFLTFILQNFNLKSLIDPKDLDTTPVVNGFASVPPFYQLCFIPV

Compound = NC/C(=C\F)COc1cccc(Cn2c(=S)[nH]c(=O)c3[nH]cnc32)c1; assay = enzyme activity, inhibitor; setting = CYP2C19 screen; IC50 = > 10 µM
Compound = CCOC(=O)[C@@]12C[C@@H]1[C@@H](n1ccc3c(NC)nc(C#Cc4ccc(Cl)s4)nc31)[C@H](O)[C@@H]2O; assay = enzyme activity, inhibitor; test system = human liver microsomes; setting = 10 min, pH 7.4, added: mephenytoin substrate; IC50 = 13.9 µM
Compound = N#Cc1ccc([C@H]2CCc3cncn32)c(F)c1; assay = inhibitor, refers to: 4'-hydroxylation; test system = pooled human liver microsomes; setting = added: S-mephenytoin 15 µM; IC50 = < 10 µM and 4 µM
Compound = COc1cc(O)c(CC=C(C)C)c2c1C(=O)CC(c1ccc(O)cc1)O2 (stereo not shown); assay = inhibitor; test system = human liver microsomes; setting = pH 7.4, added: (S)-mephenytoin; IC50 = 0.5 ± 0.1 µM
Compound = Cc1nc(-c2cnc(NC(C)C)n(C)c2=O)ccc1Oc1ccnc(-c2cnn(C)c2)c1; assay = time-dependent inhibition, inhibitor; setting = 30 min preincubation without NADPH; IC50 = > 100 µM
Compound = CCOc1cc(-c2nncn2C)ccc1Nc1ncc2cc(C)nc(NCC(C)(C)C)c2n1; assay = enzyme activity, inhibitor; IC50 = 10 to 50 µM
Compound = O=C(NCCN1CCCC1)c1cc(-c2ccc(CN3CCOCC3)cc2)nc2ccc(F)cc12; assay = inhibitor; test system = pooled human liver microsomes; setting = added: S-mephenytoin; IC50 = > 100 µM
Compound = Cc1noc(C)c1-c1ccc2nc(-c3cnn(CC(C)(C)O)c3)nc(N3CCOC[C@@H]3c3ccccc3)c2c1; IC50 = 4.9 µM
Compound = CC(C)=CCc1c(O)cc(O)c2c1O[C@H](c1ccc(O)cc1)CC2=O; assay = inhibitor; setting = pH 7.4; IC50 = 0.4 ± 0.1 µM
Compound = COc1ccc(Cc2nc(NC(=O)C34CC5CC(CC(C5)C3)C4)n(C)c2Cc2ccc(OC)c(OC)c2)cc1; IC50 = 3.35 ± 0.54 µM
